Results collected from several papers.
Protocols differ between the studies behind these lines. “And” joins repeats or separate records; there may be more than shown. Numbers after ± are the reported error.
HRH4: Histamine H4 receptor (HRH4, Homo sapiens, UniProt Q9H3N8)
Chain of UniProt Q9H3N8 (whole entry, looked up): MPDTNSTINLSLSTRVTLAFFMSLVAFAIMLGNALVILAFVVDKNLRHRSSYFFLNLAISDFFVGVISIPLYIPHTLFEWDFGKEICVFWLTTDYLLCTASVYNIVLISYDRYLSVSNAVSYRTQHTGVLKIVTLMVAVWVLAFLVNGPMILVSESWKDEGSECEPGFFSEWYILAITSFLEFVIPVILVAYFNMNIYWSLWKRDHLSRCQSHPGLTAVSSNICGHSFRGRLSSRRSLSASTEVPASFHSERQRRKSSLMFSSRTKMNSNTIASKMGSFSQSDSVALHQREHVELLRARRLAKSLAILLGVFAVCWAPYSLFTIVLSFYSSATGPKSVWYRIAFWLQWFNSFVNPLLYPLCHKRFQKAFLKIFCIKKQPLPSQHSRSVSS
SLC18A3: Vesicular acetylcholine transporter (SLC18A3, Homo sapiens, UniProt Q16572)
Chain of UniProt Q16572 (whole entry, looked up): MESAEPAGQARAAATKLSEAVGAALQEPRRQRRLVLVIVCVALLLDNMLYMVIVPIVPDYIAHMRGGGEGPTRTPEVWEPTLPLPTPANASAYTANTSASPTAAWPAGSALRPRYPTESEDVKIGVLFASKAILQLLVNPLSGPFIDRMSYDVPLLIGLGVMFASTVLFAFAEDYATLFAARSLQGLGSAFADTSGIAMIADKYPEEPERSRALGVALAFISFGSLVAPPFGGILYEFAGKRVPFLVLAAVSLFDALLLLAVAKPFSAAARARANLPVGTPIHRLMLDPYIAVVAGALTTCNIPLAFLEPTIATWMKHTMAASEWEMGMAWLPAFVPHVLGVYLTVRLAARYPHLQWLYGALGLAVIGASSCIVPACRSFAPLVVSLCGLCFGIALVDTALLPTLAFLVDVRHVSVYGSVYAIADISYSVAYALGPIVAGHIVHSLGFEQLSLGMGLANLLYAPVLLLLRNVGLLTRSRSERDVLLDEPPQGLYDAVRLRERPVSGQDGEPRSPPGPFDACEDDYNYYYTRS
Adcy2/ADCY5 C1/C2 domains: Adcy2/ADCY5, C1/C2 domains (Rattus norvegicus, UniProt P26769+P30803)
Chain of UniProt P30803 (whole entry, looked up): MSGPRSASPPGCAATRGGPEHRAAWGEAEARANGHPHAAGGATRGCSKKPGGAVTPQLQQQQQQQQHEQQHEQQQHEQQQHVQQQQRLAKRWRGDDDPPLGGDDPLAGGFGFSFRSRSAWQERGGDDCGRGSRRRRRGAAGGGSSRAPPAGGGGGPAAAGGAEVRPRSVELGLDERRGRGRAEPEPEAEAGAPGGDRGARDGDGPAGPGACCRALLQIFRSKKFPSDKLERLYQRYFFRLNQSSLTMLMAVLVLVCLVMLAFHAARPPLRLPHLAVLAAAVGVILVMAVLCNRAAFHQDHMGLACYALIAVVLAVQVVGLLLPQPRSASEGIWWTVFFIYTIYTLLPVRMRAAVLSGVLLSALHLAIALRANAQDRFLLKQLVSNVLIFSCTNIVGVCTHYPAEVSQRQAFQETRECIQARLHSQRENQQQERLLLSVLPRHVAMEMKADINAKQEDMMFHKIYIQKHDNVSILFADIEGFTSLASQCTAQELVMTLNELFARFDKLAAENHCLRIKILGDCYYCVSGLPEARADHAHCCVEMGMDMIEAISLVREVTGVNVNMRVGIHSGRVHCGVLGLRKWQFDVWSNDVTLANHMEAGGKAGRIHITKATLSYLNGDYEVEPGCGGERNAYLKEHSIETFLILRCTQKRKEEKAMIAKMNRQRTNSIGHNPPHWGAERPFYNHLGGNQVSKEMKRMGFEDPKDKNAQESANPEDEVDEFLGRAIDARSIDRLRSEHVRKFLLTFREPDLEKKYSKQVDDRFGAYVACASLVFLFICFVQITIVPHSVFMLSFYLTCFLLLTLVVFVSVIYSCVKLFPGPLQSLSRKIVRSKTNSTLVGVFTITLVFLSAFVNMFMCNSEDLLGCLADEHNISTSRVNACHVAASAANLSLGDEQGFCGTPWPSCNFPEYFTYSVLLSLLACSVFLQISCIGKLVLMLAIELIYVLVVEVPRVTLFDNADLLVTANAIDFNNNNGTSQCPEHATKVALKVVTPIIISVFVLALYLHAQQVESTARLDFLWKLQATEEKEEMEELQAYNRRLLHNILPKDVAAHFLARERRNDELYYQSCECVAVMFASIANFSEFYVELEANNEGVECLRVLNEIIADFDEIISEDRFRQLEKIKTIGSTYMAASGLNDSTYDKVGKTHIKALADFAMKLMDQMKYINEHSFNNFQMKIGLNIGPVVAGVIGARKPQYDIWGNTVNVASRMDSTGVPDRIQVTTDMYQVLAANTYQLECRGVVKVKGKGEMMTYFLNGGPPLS
Chain of UniProt P26769 (whole entry, looked up): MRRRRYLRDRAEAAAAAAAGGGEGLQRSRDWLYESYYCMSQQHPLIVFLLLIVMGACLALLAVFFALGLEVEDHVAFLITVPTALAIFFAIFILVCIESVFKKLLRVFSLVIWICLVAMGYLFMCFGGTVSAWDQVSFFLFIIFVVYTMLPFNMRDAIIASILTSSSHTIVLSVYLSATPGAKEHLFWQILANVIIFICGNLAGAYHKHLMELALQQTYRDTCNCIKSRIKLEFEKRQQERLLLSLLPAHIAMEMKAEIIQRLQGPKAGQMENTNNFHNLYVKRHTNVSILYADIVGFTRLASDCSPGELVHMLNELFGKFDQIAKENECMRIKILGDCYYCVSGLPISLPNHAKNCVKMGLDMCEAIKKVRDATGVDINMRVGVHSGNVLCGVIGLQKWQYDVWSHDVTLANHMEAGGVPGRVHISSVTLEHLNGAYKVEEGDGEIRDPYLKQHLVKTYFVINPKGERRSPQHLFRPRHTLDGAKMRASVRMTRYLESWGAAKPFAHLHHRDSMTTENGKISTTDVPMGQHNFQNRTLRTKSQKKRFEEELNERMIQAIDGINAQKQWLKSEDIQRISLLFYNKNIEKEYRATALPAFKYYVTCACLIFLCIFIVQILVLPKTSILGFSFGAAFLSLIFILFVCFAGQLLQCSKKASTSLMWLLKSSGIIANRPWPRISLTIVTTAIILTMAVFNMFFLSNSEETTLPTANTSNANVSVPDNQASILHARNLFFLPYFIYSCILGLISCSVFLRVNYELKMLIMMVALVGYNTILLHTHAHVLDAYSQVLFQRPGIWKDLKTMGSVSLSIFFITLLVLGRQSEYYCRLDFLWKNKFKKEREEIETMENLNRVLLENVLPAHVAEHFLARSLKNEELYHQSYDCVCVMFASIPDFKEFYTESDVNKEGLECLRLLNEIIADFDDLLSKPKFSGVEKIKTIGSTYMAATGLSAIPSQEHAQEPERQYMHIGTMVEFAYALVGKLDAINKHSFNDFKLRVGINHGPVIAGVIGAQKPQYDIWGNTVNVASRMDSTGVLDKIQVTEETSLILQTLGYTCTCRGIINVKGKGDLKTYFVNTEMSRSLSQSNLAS
odorant-binding protein 24: odorant-binding protein 24 (Monochamus alternatus, UniProt A0A1I9HZN3)
ADORA3: Adenosine receptor A3 (ADORA3, Homo sapiens, UniProt P0DMS8)
Chain of UniProt P0DMS8 (whole entry, looked up): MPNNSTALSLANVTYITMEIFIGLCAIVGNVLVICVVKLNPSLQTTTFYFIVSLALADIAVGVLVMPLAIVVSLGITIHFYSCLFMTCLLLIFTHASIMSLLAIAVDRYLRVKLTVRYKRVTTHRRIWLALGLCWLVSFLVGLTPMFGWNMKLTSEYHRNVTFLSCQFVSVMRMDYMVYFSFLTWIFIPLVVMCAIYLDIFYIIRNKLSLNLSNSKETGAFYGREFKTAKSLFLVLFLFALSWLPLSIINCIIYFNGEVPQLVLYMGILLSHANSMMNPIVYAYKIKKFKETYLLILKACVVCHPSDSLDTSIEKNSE
Ribonucleoside-diphosphate reductase large subunit: Ribonucleoside-diphosphate reductase large subunit (Homo sapiens, UniProt P23921)
Chain of UniProt P23921 (whole entry, looked up): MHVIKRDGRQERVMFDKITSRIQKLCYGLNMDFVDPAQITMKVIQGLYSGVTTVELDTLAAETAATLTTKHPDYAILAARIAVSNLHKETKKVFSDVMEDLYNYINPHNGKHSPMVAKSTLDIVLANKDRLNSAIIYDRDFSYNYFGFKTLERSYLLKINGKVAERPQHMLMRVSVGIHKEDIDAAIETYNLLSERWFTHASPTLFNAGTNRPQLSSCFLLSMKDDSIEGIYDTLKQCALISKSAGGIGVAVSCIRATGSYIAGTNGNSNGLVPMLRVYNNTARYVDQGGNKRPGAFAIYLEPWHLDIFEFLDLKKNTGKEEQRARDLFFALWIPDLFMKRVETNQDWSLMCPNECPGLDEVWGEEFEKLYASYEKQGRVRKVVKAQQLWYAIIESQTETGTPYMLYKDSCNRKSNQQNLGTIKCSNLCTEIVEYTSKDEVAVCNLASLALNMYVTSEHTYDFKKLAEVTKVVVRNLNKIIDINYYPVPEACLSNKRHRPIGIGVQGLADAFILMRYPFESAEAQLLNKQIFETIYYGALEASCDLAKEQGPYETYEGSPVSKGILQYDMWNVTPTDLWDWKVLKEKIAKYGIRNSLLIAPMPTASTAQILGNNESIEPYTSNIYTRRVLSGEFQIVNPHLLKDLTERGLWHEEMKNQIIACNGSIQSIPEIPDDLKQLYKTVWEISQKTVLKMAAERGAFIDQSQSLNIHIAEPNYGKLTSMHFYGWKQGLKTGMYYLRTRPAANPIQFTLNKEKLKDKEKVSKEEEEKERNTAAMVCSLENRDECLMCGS
SNCA fibrils: Alpha-synuclein, fibrils (SNCA, Homo sapiens, UniProt P37840)
Chain of UniProt Q13838 (whole entry, looked up): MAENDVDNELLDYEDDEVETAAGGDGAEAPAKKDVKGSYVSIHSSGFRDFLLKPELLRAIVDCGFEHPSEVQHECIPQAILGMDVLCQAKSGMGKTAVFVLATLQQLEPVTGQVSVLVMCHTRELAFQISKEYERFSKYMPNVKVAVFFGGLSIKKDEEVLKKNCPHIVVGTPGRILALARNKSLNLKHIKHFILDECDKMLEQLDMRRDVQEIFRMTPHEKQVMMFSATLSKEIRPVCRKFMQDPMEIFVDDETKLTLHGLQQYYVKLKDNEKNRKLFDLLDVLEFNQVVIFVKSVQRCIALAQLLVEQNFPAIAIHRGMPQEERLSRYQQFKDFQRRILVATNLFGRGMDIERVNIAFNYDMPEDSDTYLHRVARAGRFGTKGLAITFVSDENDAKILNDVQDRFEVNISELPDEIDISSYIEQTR
Chain of UniProt Q57T48 (whole entry, looked up): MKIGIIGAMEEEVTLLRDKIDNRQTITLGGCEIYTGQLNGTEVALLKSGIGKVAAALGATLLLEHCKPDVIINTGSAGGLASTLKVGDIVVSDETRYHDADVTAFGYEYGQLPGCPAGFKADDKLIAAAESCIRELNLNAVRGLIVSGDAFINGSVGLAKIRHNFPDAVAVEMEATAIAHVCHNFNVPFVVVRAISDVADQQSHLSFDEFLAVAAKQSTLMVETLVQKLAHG

Substance	target	assay	test system	setting	Ki
N=C(NCCCCCCCCN)NCCCc1c[nH]cn1	HRH4	ligand displacement, radioligand		cell membranes	0.468 µM
CSC[C@H]1CN(Cc2c[nH]c3c(N)ncnc23)C[C@@H]1O	5'-methylthioadenosine/S-adenosylhomocysteine nucleosidase (mtnN, Salmonella choleraesuis, UniProt Q57T48)	enzyme activity, slow-onset inhibitor	Salmonella enterica		5e-06 ± 4e-07 µM
CNS(=O)(=O)c1ccc(C(=O)C2CCN(C3Cc4ccccc4CC3O)CC2)cc1 (racemic)	SLC18A3	ligand displacement, radioligand			0.0063 µM
CCc1cc(-c2n[nH]c(C)c2-c2ccc3c(c2)OCCO3)c(O)cc1O	DDX39B (Homo sapiens, UniProt Q13838)	ATPase activity, inhibitor, Kinase-Glo		with: ATP	5.5 ± 0.2 µM
ANT-GTP	Adcy2/ADCY5 C1/C2 domains	enzyme activity, inhibitor		with: 10 mM MnCl2 and 100 µM forskolin	0.16 ± 0.045 µM
N=c1ccc2c(-c3ccc(C(=O)NCCCCCCn4cc(CCCC(=O)Nc5nc6ccc(Cl)cc6c6nc(-c7ccco7)nn56)nn4)cc3C(=O)O)c3ccc(N)c(S(=O)(=O)O)c3oc-2c1S(=O)(=O)O	ADORA2A (Homo sapiens, UniProt P29274)	ligand displacement, radioligand			0.073 µM
O=c1ccn([C@@H]2O[C@H](CO)[C@@H](O)[C@H]2O)c(=O)[nH]1	P1-type nucleoside transporter	thymidine uptake, inhibitor	Trypanosoma brucei brucei, bloodstream form	15 min, with: [3H]-thymidine	199 ± 38 µM
O=C(c1ccc(SCCCF)cc1)C1CCN(C2Cc3ccccc3CC2O)CC1 (racemic)	SLC18A3	ligand displacement, radioligand			0.0023 µM
(+)-β-pinene	odorant-binding protein 24	competitive fluorescence binding		pH 5, with: 1-NPN	> 50 µM
Nc1ncnc2c1ncn2[C@@H]1O[C@H](COP(=O)(O)OP(=O)(O)O)[C@@H](O)[C@H]1O	Mapk1 (Rattus norvegicus, UniProt P63086)	noncompetitive vs substrate		with: MgATP 1 mM, varied Sub-D	730 ± 56 µM
CCOC(=O)C1(CCN2CCc3ccccc3C2)Cc2cc(Cl)ccc2C1=O (stereo not drawn)	HTR1A (Homo sapiens, UniProt P08908)	radioligand binding		with: [3H]8-OH-DPAT	0.0501 µM
CC(=O)C1CCCN1Cc1ccccc1 (stereo not drawn)	MAL12 (Saccharomyces cerevisiae S288c, UniProt P53341)	enzyme activity, inhibitor, absorbance			2440 µM
N=C(N)NCCCCCCCCCCCCNC(=N)NCCCc1c[nH]cn1	HRH4	ligand displacement, radioligand		cell membranes	0.0282 µM
Nc1nc(Cl)nc2c1ncn2[C@@H]1O[C@H](CO)[C@@H](O)[C@@H]1F	ADORA3	ligand displacement, radioligand		cell membranes	10.6 µM
CCOC(=O)[C@@]12C[C@@H]1[C@@H](n1ccc3c(NC)nc(C#Cc4ccc(Cl)s4)nc31)[C@H](O)[C@@H]2O	ADORA3	ligand displacement, radioligand		cell membranes	0.448 µM
CC(C)CC(=O)N[C@H](C(=O)N[C@H](C(=O)N[C@@H](CC(C)C)[C@@H](O)CC(=O)N[C@@H](C)C(=O)N[C@@H](CC(C)C)[C@@H](O)CC(=O)O)C(C)C)C(C)C	Pregnancy-associated glycoprotein 2 (PAG2, Bos taurus, UniProt Q28057)	enzyme activity, inhibitor		pH 4.0, 37 °C, Bos taurus enzyme	0.00056 µM
O=C(/C=C/c1ccccc1)c1ccccc1O	GABA-A receptor benzodiazepine site (rat)	binding	rat cerebral cortex membranes	with: [3H]flunitrazepam	17.1 ± 1.3 µM
Cc1nc(N)sc1CCCNC(=N)NCCCCCCCCCCCCNC(=N)N	HRH4	ligand displacement, radioligand		cell membranes	0.589 µM
Nc1nc(F)nc2c1ncn2[C@@H]1O[C@H](COP(=O)(O)OP(=O)(O)O)[C@@H](O)[C@@H]1O	Ribonucleoside-diphosphate reductase large subunit	CDP reductase activity, inhibitor		3 min, apparent Ki, with: CDP substrate, ATP effector	9.4 ± 1.7 µM
C=C(C)[C@H]1CC=C(C)CC1	odorant-binding protein 24	binding, competitive fluorescence binding		pH 5, with: 1-NPN	> 50 µM
c1cc2c(cc1C1CCCCC1)c1c3n2CCNC3CCC1 (stereo not drawn)	MAOA (Homo sapiens, UniProt P21397, S209A)	enzyme activity, competitive inhibitor		S209A mutant, with: kynuramine	4.11 ± 0.67 µM

Substance	target	assay	test system	setting	Ki
N=C(NCCCCCCNC(N)=O)NCCCc1c[nH]cn1	HRH4	ligand displacement, radioligand		cell membranes	0.661 µM
NC[C@@H]1O[C@H](C23CC4CC(CC(C4)C2)C3)Cc2c1ccc(O)c2O	D(1A) dopamine receptor (Sus scrofa, UniProt P50130)	binding, radioligand competition binding	porcine striatal homogenate	with: 1 nM [3H]SCH-23390	0.0039 ± 0.0006 µM
Nc1nc2c(ncn2[C@H]2C[C@H](O)[C@@H](COP(=O)(O)O)O2)c(=O)[nH]1	OGG1 (Homo sapiens, UniProt O15527)	8-oxoguanine excision, competitive inhibitor		pH 7.5, 37 °C, substrate at 2 × Km, with: 22 nM oxoguanine duplex DNA	6500 µM
CC1=CCC(=C(C)C)CC1	odorant-binding protein 24	binding, competitive fluorescence binding		pH 5, with: 1-NPN	> 50 µM
N=C(NCCCNC(N)=O)NCCCc1c[nH]cn1	HRH4	ligand displacement, radioligand		cell membranes	0.145 µM
Cc1ccc(C(=O)/C=C/c2ccccc2)cc1	GABA-A receptor benzodiazepine site (rat)	binding	rat cerebral cortex membranes	with: [3H]flunitrazepam	6.3 µM and ~6 µM and < 6 µM
Nc1ccn([C@@H]2O[C@H](CO)[C@@H](O)[C@H]2O)c(=O)n1	Trichomonas vaginalis nucleoside transporter	inhibitor	trophozoites, Trichomonas vaginalis	monophasic fit, with: [3H]-guanosine	19 ± 0.9 µM
CC1(C)C=C(C(=O)OC(C)(C)C)C(=O)CC1	MAPK8 (Homo sapiens, UniProt P45983)	ligand displacement, FP			110 µM
N=C(NCCCCCCCCCCNC(N)=O)NCCCc1c[nH]cn1	HRH4	ligand displacement, radioligand		cell membranes	0.2 µM
Nc1ncnc2c1ncn2[C@@H]1O[C@H](COP(=O)(O)OP(=O)(O)O)[C@@H](O)[C@H]1O	LRRK2 (Homo sapiens, UniProt Q5S007, G2019S)	kinase activity, inhibitor, radiometric		Ki,eb, variable LRRKtide	100 ± 10 µM
(+)-limonene oxide	odorant-binding protein 24	competitive fluorescence binding		pH 5, with: 1-NPN	> 50 µM
Cc1nc(N)sc1CCCNC(=N)NCCCCCCCCNC(=N)N	HRH4	ligand displacement, radioligand		cell membranes	0.398 µM
CCOC(=O)NC(=N)c1ccc(OCc2cccc(COc3ccc(C(C)(C)c4ccc(O)cc4)cc3)c2)cc1	Leukotriene B4 receptor 1 (Cavia porcellus, UniProt H0VYV8, H83G/K88G/S309A)	displacement of LTB4	membrane fraction	H83G/K88G mutant	0.395 µM
Nc1ccn([C@@H]2O[C@H](CO)[C@@H](O)[C@H]2O)c(=O)n1	P1-type nucleoside transporter	thymidine uptake, inhibitor	Trypanosoma brucei brucei, bloodstream form	15 min, with: [3H]-thymidine	> 10000 µM
Nc1ncnc2c1ncn2[C@@H]1O[C@H](COP(=O)(O)OP(=O)(O)O)[C@@H](O)[C@H]1O	Cyclin-dependent kinase 5, with p25 (CDK5, Homo sapiens, UniProt Q00535)	inhibitor		ATP varied, with: 0.2 mM MgCl2	300 ± 100 µM
CN(C)c1ccc(/C=C/C(=O)c2nc3ccccc3s2)cc1	SNCA fibrils	fibril binding, thioflavin T competition		1 µM fibrils, with: thioflavin T 3 µM	0.906 ± 0.0297 µM
Nc1nc(Cl)nc2c1ncn2[C@H]1C[C@H](O)[C@@H](COP(=O)(O)OP(=O)(O)OP(=O)(O)O)O1	Ribonucleoside-diphosphate reductase large subunit	CDP reductase activity, inhibitor		3 min, apparent Ki, with: CDP substrate, ATP effector	0.5 ± 0.1 µM
(+)-α-pinene	odorant-binding protein 24	competitive fluorescence binding		pH 7.4, with: 1-NPN	12.8 ± 1.09 µM
COc1ccc(-c2cc(-c3nccs3)n[nH]2)cc1	SNCA fibrils	fibril binding, thioflavin T competition		1 µM fibrils, with: thioflavin T 3 µM	0.163 µM
NC(=O)NCCCc1c[nH]cn1	HRH4	ligand displacement, radioligand		cell membranes	0.148 µM
CNc1ccccc1C(=O)O[C@@H]1C[C@@H](COP(=O)(O)OP(=O)(O)OP(=O)(O)O)O[C@H]1n1cnc2c(=O)[nH]c(N)nc21	Adcy2/ADCY5 C1/C2 domains	adenylyl cyclase activity, inhibitor, purified enzyme		with: 10 mM MnCl2, 100 µM forskolin, no Gsα-GTPγS	1.2 ± 0.074 µM

Some of these lines once more:
Substance	target	assay	test system	setting	Ki
N=C(NCCCNC(N)=O)NCCCc1c[nH]cn1	HRH4	ligand displacement, radioligand		cell membranes	0.145 µM
Cc1ccc(C(=O)/C=C/c2ccccc2)cc1	GABA-A receptor benzodiazepine site (rat)	binding	rat cerebral cortex membranes	with: [3H]flunitrazepam	6.3 µM and ~6 µM and < 6 µM
Nc1ccn([C@@H]2O[C@H](CO)[C@@H](O)[C@H]2O)c(=O)n1	Trichomonas vaginalis nucleoside transporter	inhibitor	trophozoites, Trichomonas vaginalis	monophasic fit, with: [3H]-guanosine	19 ± 0.9 µM
CC1(C)C=C(C(=O)OC(C)(C)C)C(=O)CC1	MAPK8 (Homo sapiens, UniProt P45983)	ligand displacement, FP			110 µM
N=C(NCCCCCCCCCCNC(N)=O)NCCCc1c[nH]cn1	HRH4	ligand displacement, radioligand		cell membranes	0.2 µM
Nc1ncnc2c1ncn2[C@@H]1O[C@H](COP(=O)(O)OP(=O)(O)O)[C@@H](O)[C@H]1O	LRRK2 (Homo sapiens, UniProt Q5S007, G2019S)	kinase activity, inhibitor, radiometric		Ki,eb, variable LRRKtide	100 ± 10 µM
(+)-limonene oxide	odorant-binding protein 24	competitive fluorescence binding		pH 5, with: 1-NPN	> 50 µM
